Assay results gathered from unrelated publications.
A part holds a random share of what one study measured.

Block 1 — method: aptamer microarray, sandwich; molecule type: DNA with 2'F-ANA; matrix: in vitro; concentration: 200 nM; with: Cy3 exosite-II aptamer, 400 nM; reading: higher = stronger binding; strand: GGTTGGTGTGGTTGG
Target: Prothrombin, mature alpha-thrombin (F2, Homo sapiens, UniProt P00734)
Setting: whole 15-mer aptamer, many near background
Modification	mean fluorescence intensity [a.u.]
2'F-ANA at 1 2 5 6 9 11 15	51.5
2'F-ANA at 4 5 6 7 8 9 11 14	59.3
2'F-ANA at 1 2 5 6 7 9 10 12	50.5
2'F-ANA at 2 8 10 11 12	173
2'F-ANA at 4 6 7 8 12	628
2'F-ANA at 1 2 4 5 6 7 10 12 13 14 15	48.8
2'F-ANA at 1 4 5 10 11 12 13	52.3
2'F-ANA at 3 4 6 7 8 9 10 11 12 13 14 15	191
2'F-ANA at 3 4 5 7 11 12 13 14	54.2
2'F-ANA at 1 5 6 7 9 11 14 15	46.1
2'F-ANA at 4 5 7 10 11 15	52.9
2'F-ANA at 2 3 4 5 7 8 10 13	49.1
2'F-ANA at 1 2 4 11 13 14 15	51.7
2'F-ANA at 1 2 3 4 5 8 11	84
2'F-ANA at 3 5 9 10 11 12 15	110
2'F-ANA at 1 4 5 6 10 12	47.8
2'F-ANA at 2 3 5 6 8 15	104
2'F-ANA at 5 7 8 11 14	44.6

Block 2 — method: RNA Bind-n-Seq; molecule type: RNA; matrix: in vitro; concentration: 20 nM; setting: 6-mer, flanks averaged, single round; with: 150 mM KCl; reference: input library; reading: higher = stronger binding
Target: TAR DNA-binding protein 43, full length, His tag (TARDBP, Homo sapiens, UniProt Q13148, residues 1-414)
Strand	6-mer enrichment (R)
GAAAAA	0.891
AGUUAC	0.613
UUCGUU	0.547
GUAGAC	0.913
AGCUGU	0.768
ACAUUU	0.623
UUAGGC	0.746
AUCUGA	0.583
CACCAC	0.716
GAUCAC	0.659
UUGAAC	0.637
CUUUAC	0.572
UUGCGG	1.5
AGGCAC	0.899
AAAAGG	0.985
CUUUUG	0.673
CUAGCG	0.955
AUGUCG	0.823
GGUCAC	0.956

Block 3 — method: RNA Bind-n-Seq; molecule type: RNA; matrix: in vitro; concentration: not given; reference: input RNA pool; reading: higher = stronger binding
Target: RING finger protein unkempt homolog, zinc fingers 1-6, GST-SBP tag (UNK, Homo sapiens, UniProt Q9C0B0, residues 30-357)
Sequence of UniProt Q9C0B0 (30-357, looked up): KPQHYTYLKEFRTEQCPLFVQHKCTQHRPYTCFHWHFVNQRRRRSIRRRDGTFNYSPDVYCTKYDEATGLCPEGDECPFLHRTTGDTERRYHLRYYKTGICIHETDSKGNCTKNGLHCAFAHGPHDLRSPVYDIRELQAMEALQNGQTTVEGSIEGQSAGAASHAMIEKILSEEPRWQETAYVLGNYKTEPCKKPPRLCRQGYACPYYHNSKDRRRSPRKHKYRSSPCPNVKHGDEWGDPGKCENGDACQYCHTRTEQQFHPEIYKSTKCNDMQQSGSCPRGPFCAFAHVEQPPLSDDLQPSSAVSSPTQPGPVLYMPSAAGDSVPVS
Setting: RNA with constant flanks, human-mouse chimeric sites, ends assumed
Shared flanks, not repeated: GGGAGUUCUACAGUCCGACGAUC … CAACAGAGGAUUGAGCAUCA
Strand	bound/input enrichment [ratio]
CACGUGUCUGCAGUACUUGAUGUGGACUACUCUCCCACUGGGAAGGAAUUUGUGUCUGCCAGCUUUGAUAAAUCUAUUAGAAUCUUUCCUGUGGACAAGAGCCGAAGCAGGGAGGUAUAU	0.495
AAAUCGUGUGUGUCCAAUAUUGAAAGUACUUUAUCUGCACUCCAAUAUGUAAGCAGUAUAGUAGUUUCUUUAGAGAAUAGGUCAGCCAUUGUAAAGUACAAUGCAAGCUUAGUCACUCCA	2.75
CCUGCUCAGAUCACCAUGAAAGUAAUCCAAGGCCUAUAUAGUGGGGUCACCACAGUGGAACUAGAUACCCUGGCUGCUGAGACAGCCGCGACCUUGACUACUAAGCACCCUGACUAUGCC	0.164
GAUGAUAAUCACACAAAUGUGGCACUUUUACAUGACCAGCCUUGGGAUUCUUUUCCUGAUUAGUAUUCUCCCUGGAACCACUGGUCAAGGGGAAUCAAGACGACAAGAACCCGGGGACUU	0.129
AGAUAUUAAGUAUUUUGAAAAAACUCGAACAGAUUUGACAAGGGUAGCCAGCUUGGAGUCUAGCAACUUGCCAAUGUGUUUACCAAUCUGGGGGCUUGUUUUUCUUUCCCUUCCUUAAAU	0.291
UCCCUGUUGCUGAAUAAAUGGCUUGUAAAGAAGUUUUUCCAAGCUGUACCCAUGUACGUUAUUAUAGUUGCUGCAAAAUGUUCUUCCUGAUAUUGAUUUUAUUUGUUAACUGAAGGUCUC	0.444
UCUGGCCAUACUCGUGCGUAUGGUGUUUGCUUUGUGGACACUUCACUGGGCAAGUUUUUCAUCGGCCAGUUUUCGGAUGACCGCCACUGUUCCAGAUUUAGGACGCUAGUGGCUCACUAU	0.15
UCAACAGACAACAUCAAAUACCAGCCUAAAGGGGGGCAGGUACAAAUUGUUACCAAGAAGAUAGACUUAAGCCAUGUGACAUCCAAAUGUGGCUCUCUGAAGAACAUCCGCCACAGGCCA	0.399
GCCACCAGAUCCCAGAAACAUGACCCUUGCUGCCUACAAAGAGAAGAUGAAGGAGCUCCCACUAGUGUCCUUGUUCUGCUCCUGCUUCUUGUCUGAUCCCCUGAAUAAGUCGUCCUACAA	0.587
CAGCCUCAGAGCCCAGACUUCCUGGAUAUCACCAACCCUAAAGCGGUAUUAGAAAAUGCAUUGAGAAACUUCGCCUGUCUGACGACUGGAGAUGUGAUUGCCAUCAACUACAAUGAGAAG	0.5
GAUCAUGAACCACCAUCAGAAAUGAAGAUGAGAUUACCCAGACGAGCCCAAAACCGCGCGCUACAGAAAAGUAAACUUAACCUUGCAGAGUUCCUUAAUGAAGAUACAAGUUAAGAGAGC	0.204

Block 4 — method: RNA Bind-n-Seq; molecule type: RNA; matrix: in vitro; concentration: 365 nM; reference: no-protein control; reading: higher = stronger binding
Target: RNA binding protein fox-1 homolog 2, RRM domain, GST-SBP tag (RBFOX2, Homo sapiens, UniProt O43251-10, residues 100-194)
Setting: natural RNA segment, single round, ends assumed
Shared flanks, not repeated: GGGAGUUCUACAGUCCGACGAUC … UGGAAUUCUCGGGUGCCAA
Construct (chain): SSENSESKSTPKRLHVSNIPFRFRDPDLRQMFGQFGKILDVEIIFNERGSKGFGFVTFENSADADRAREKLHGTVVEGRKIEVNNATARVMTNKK
Strand	RBNS enrichment (R)
UUCUCUAAUUUCUCUGUUCAGAGCCCCAGCAGACCUUAUUACUGGGGUAAGGCAAGUCUGUUGACUGGUGUCCCUCACCUCGCUUCCCUAAUCUACAUUCAGGAGACCGA	0.306
ACGAUGGGGCCUCUUUCUAAAGGCAGUUGCUGCAAAUUCCAGUUCUUCCAAAAGUCACUUGAUUUAAGGGUUAUCCACAAGUUGUGCUUAUUUUGAUAUAGCAUUUGUUU	0.506
GACCGAGCAGGAACAGAGGCUGCAGUUGGGCUGGCUGACUGAGGGUGCCUGGCUGCCCAGCCUGCGGUAGCCGUGCUCCCUGCCCUCCUGUGGCCCUAUGGUGUGAUGCU	7.02
AGCCUGUCCUCUCAGGAGCUACAAAAGGAAUGCAGAAUUCUGUCUCUGUCCCUCCCACCUUGCCUUAUCCUUCAUUGGUUUCUUCACACACUCAAUAAAGAAGCAUGCUU	4.05
UCAAUAUUUUAUUCAAACUCUGUUGAGGCAUUUUACUAACCUUAUACCCUUUUUGGCCUGAAGACAUUUUAGAAUUUCCUAACAGAGUUUACUGUUGUUUAGAAAUUUGC	0.544
UGUUGUUGAAAUGAAAGGUAUUUUGGGGUUAUUUAUUAUGAAAACAACAUGCUCUUAAUGUUGAUUUUACAAUAUGAAGAGAUUAUUUAAAUAAAUUAUUGUUUUCAUUG	0.807
CUGUCAUCAGCCAGUGCUAACACCGGGCCAAUAAGAAUAUAACACCAAAUAACUGCUGGCUAGUUGGGGCUUUGUUUUGGUCUAGUGAAUAAAUACUGGUGUAUCCCCUG	0.282
ACAGAUUGUUGAGCCUACCAUAGGUCAAAAGGACUGGAAUUUUCCUUCUUAACAAGUAUAGUCAUGGCACCACGUAACAUUUUGGUCAAUGACAUUGUAUAAAGGGUGGU	0.341
CUUAAAGUUAAAAGAAAAUACAGAAUACCAGCAGAACUUGAUUAUUGUUUUCUGUCCAAACUUCUUAUGACUUUAGUUUUUCAUCAGUCAAUAAAAUUAAUUUACUCUUC	0.638
CUCUUCCUUGUAGGGCCCUUUCCUUAUUCAUUUAGGUAGUGUGAACAUUAAGUAUAAAAUAAAUUAUGUUCUUAAUGCCUCUUAAACCACUUACAUUCAAAGGGGAACAG	0.326
CCUAUUGAACAUUUGAUCAGAAUGAACUUGCCAAUCAAAACAAAAACAGGACAAUCAAUUUAAGACAACAGAAAUAGAGAUUGUUAAAUAAAACCAUUAGUAUUUUACUU	0.494
AAGGCCUUGAUGUGAAUUUUCUUUGGUACAAAUAGGAAUGGCCCACUGAGGCAGAGGAGUAAGAGUGGUCCAUACACCCAAAUGCCAGCAAAUUGGCAUCUCAUUCUACC	0.489

Block 5 — method: protein binding microarray; molecule type: double-stranded DNA, one strand shown; matrix: in vitro; concentration: not given; reference: not given; reading: higher = stronger binding
Target: Histone acetyltransferase KAT6A, both winged helices, GST fusion (KAT6A, Homo sapiens, UniProt Q92794, residues 1-181)
Setting: 8-mer, flanks averaged, mean of 2 arrays, mostly near background
Target sequence (chain): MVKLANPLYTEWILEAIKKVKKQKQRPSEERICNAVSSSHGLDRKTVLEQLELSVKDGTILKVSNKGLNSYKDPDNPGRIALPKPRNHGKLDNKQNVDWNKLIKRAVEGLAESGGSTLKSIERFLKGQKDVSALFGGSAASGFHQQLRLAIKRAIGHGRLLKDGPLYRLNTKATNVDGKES
Strand	E-score
AAGTACAT	-0.0185
AAGCGTCA	0.0724
ACGCGTTG	0.278
GGGAACGA	0.0217
GCAGATCC	0.00724
GAGGATTA	-0.182
TGGAAGAA	-0.126
CATTGTCG	-0.00923
GGGCCCGA	0.0575
GCCCTTAA	-0.104
TCTTTGCA	-0.177
ACCGACTA	0.0903
CAGGCCAC	-0.0245
GTATATTA	-0.0719
CCCACGGG	0.142
ACATCGAA	0.151
GACTCTAC	-0.101
ATAGTGGA	-0.16
GGAAACCC	0.0866
GGTTTTAC	0.00906

For quick reference, copied from above (block 5):
Strand	E-score
CATTGTCG	-0.00923
GGGCCCGA	0.0575
GCCCTTAA	-0.104
TCTTTGCA	-0.177
ACCGACTA	0.0903
CAGGCCAC	-0.0245
GTATATTA	-0.0719
CCCACGGG	0.142
ACATCGAA	0.151
GACTCTAC	-0.101
ATAGTGGA	-0.16
GGAAACCC	0.0866
